Experimental data of several laboratories.
Lines come from different studies, so protocols differ.
Sequence of UniProt O95983 (whole entry, looked up): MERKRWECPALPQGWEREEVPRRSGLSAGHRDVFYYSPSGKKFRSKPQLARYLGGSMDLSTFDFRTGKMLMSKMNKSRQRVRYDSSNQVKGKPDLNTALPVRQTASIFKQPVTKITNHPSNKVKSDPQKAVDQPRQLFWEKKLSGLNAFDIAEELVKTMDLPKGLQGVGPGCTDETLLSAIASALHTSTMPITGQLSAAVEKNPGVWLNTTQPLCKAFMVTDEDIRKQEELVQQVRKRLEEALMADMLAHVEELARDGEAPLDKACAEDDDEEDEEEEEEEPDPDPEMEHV

CC[C@H](C)[C@H](N)C(=O)N[C@@H](CCCNC(=N)N)C(=O)N[C@H](C(=O)N[C@@H](Cc1c[nH]c2ccccc12)C(=O)N[C@@H](Cc1c[nH]c2ccccc12)C(=O)N[C@@H](CCCCN)C(=O)N[C@H](C(=O)N[C@H](C(=O)N[C@@H](CCCNC(=N)N)C(=O)N[C@@H](CCCCN)C(=O)N[C@@H](Cc1c[nH]c2ccccc12)C(=O)N[C@@H](CCCCN)C(=O)N[C@@H](C)C(=O)N[C@H](C(=O)N[C@@H](Cc1c[nH]c2ccccc12)C(=O)N[C@@H](Cc1c[nH]cn1)C(N)=O)[C@@H](C)CC)C(C)C)[C@@H](C)CC)C(C)C  MIC (Enterobacter sp.; broth dilution; KCTC 2625): 25 µM
CNC(C)[C@@H]1CC[C@@H](N)[C@@H](O[C@H]2[C@H](O)[C@@H](O[C@H]3OC[C@](C)(O)[C@H](NC)[C@H]3O)[C@H](N)C[C@@H]2N)O1 (some centres unmarked)  MIC (Proteus mirabilis; broth microdilution; 18 h): 4 µg/mL
CC1(C)SC2C(NC(=O)C(NC(=O)C3=C(O)CNC3=O)c3ccccc3)C(=O)N2C1C(=O)O (centres unmarked)  MIC (Escherichia coli; broth microdilution; ATCC 35218, low-level TEM-1; no clavulanic acid): > 200 µg/mL
N=C(N)NCCC[C@H](NC(=O)[C@H](Cc1c[nH]c2ccccc12)NC(=O)[C@H](CCCNC(=N)N)NC(=O)[C@H](Cc1c[nH]c2ccccc12)NC(=O)[C@H](Cc1c[nH]c2ccccc12)NC(=O)[C@H](Cc1c[nH]c2ccccc12)NC(=O)[C@H](CCCNC(=N)N)NC(=O)[C@H](Cc1c[nH]c2ccccc12)NC(=O)[C@@H](N)CCCNC(=N)N)C(=O)N[C@@H](Cc1ccccc1)C(N)=O  MIC (Candida albicans; broth microdilution; CGMCC 2.209, RPMI 1640-MOPS; 48 h, 30 °C, with: CaCl2 2 mM): 16 µM
CC[C@H](C)[C@H](NC(=O)[C@H](C)NC(=O)[C@H](CCCCN)NC(=O)[C@H](CC(C)C)NC(=O)[C@H](C)NC(=O)[C@@H](NC(=O)[C@H](Cc1c[nH]cn1)NC(=O)[C@H](CC(C)C)NC(=O)[C@@H](NC(=O)[C@@H](NC(=O)[C@H](CCCCN)NC(=O)[C@H](C)NC(=O)[C@H](C)NC(=O)[C@H](CO)NC(=O)[C@H](CCCCN)NC(=O)[C@H](Cc1ccccc1)NC(=O)[C@@H](NC(=O)[C@H](CCCCN)NC(=O)[C@H](CC(C)C)NC(=O)[C@H](Cc1ccccc1)NC(=O)[C@H](CO)NC(=O)[C@H](CCCCN)NC(=O)[C@H](Cc1c[nH]c2ccccc12)NC(=O)[C@H](CCCCN)NC(C)=O)[C@@H](C)O)[C@@H](C)O)C(C)C)[C@@H](C)O)C(=O)N[C@@H](CO)C(=O)N[C@@H](CO)C(N)=O  MIC (Enterobacter aerogenes; geometric mean of 40 strains): 12.3 µg/mL
CC(C)C[C@@H](NC(=O)[C@H](C)NC(=O)CNC(=O)[C@@H](NC=O)C(C)C)C(=O)N[C@@H](C)C(=O)N[C@@H](C(=O)N[C@H](C(=O)N[C@@H](C(=O)N[C@@H](Cc1c[nH]c2ccccc12)C(=O)N[C@H](CC(C)C)C(=O)N[C@@H](Cc1ccc2[nH]ccc2c1)C(=O)N[C@H](CC(C)C)C(=O)N[C@@H](Cc1c[nH]c2ccccc12)C(=O)N[C@@H](C(=O)N[C@@H](Cc1c[nH]c2ccccc12)C(=O)NCCO)C(C)C)[C@H](C)O)C(C)C)C(C)C  MIC (Listeria monocytogenes; broth microdilution; 10403S): 1.1 µM
N=C(N)NCCC[C@H](NC(=O)CCCCCNC(=O)[C@H](CCCNC(=N)N)NC(=O)[C@H](CCCNC(=N)N)NC(=O)CCCCCNC(=O)[C@H](CCCNC(=N)N)NC(=O)[C@H](CCCNC(=N)N)NC(=O)CCCCCNC(=O)[C@H](CCCNC(=N)N)NC(=O)[C@H](CCCNC(=N)N)NC(=O)CCCCCNC(=O)[C@@H](N)CCCNC(=N)N)C(=O)NCCCCCC(=O)NCCC(=O)O  MIC (Escherichia coli; ATCC 25922; 1 h, 37 °C, after 25% fetal bovine serum): > 192 µM
N=C(N)NCCC[C@H](NC(=O)[C@H](Cc1c[nH]c2ccccc12)NC(=O)[C@H](CCCNC(=N)N)NC(=O)[C@H](Cc1c[nH]c2ccccc12)NC(=O)[C@H](Cc1c[nH]c2ccccc12)NC(=O)[C@H](Cc1c[nH]c2ccccc12)NC(=O)[C@H](CCCNC(=N)N)NC(=O)[C@H](Cc1c[nH]c2ccccc12)NC(=O)[C@H](CCCNC(=N)N)NC(=O)CN)C(N)=O  MIC (Candida albicans; broth microdilution; alveolar fluid isolate, RPMI 1640-MOPS; 48 h, 30 °C): 8 µM
CC(C)(C)Oc1ccc(CC2NC(=O)C(C(=O)NC(C(=O)NC3C(=O)N4C3SC(C)(C)C4C(=O)O)c3ccccc3)=C2O)cc1 (centres unmarked)  MIC (Escherichia coli; broth microdilution; isolate IU, CTX-M-14, TEM-1; no clavulanic acid): > 200 µg/mL
N=C(N)NCCC[C@H](NC(=O)CN)C(=O)N[C@@H](Cc1c[nH]c2ccccc12)C(=O)N[C@@H](CCCNC(=N)N)C(=O)N[C@@H](Cc1c[nH]c2ccccc12)C(=O)N[C@@H](Cc1c[nH]c2ccccc12)C(=O)N[C@@H](Cc1c[nH]c2ccccc12)C(=O)N[C@@H](CCCNC(=N)N)C(=O)N[C@@H](Cc1c[nH]c2ccccc12)C(=O)N[C@@H](CCCNC(=N)N)C(=O)N[C@@H](Cc1c[nH]c2ccccc12)C(N)=O  MIC (Candida albicans; broth microdilution; CGMCC 2.209, RPMI 1640-MOPS; 48 h, 30 °C, with: KCl 4.5 mM): 4 µM
CC[C@H](C)[C@H](NC(=O)[C@H](CC(C)C)NC(=O)[C@H](CCCCN)NC(=O)[C@@H](NC(=O)[C@H](C)NC(=O)[C@H](CCC(=O)O)NC(=O)[C@H](Cc1c[nH]cn1)NC(=O)[C@@H](NC(=O)[C@H](CCCCN)NC(=O)[C@H](CCC(N)=O)NC(=O)[C@H](Cc1ccccc1)NC(=O)[C@@H](NC(=O)[C@H](CCCCN)NC(=O)[C@H](CCCCN)NC(=O)[C@H](CC(C)C)NC(=O)[C@H](C)N)C(C)C)[C@@H](C)CC)[C@@H](C)CC)C(N)=O  MIC (Listeria monocytogenes; CLSI broth microdilution; KCTC 3710; 18 h, 37 °C): 16 µM
CC1NC(=O)C(C(=O)NC(C(=O)NC2C(=O)N3C2SC(C)(C)C3C(=O)O)c2ccccc2)=C1O (centres unmarked)  MIC (Escherichia coli; broth microdilution; Keio mutant JW5195-1; 18 h): 50 µg/mL
CC[C@H](C)[C@H](NC(=O)CN)C(=O)NCC(=O)N[C@@H](CCCCN)C(=O)N[C@@H](Cc1ccccc1)C(=O)N[C@@H](CC(C)C)C(=O)N[C@@H](CCCCN)C(=O)N[C@@H](CCCCN)C(=O)N[C@@H](C)C(=O)N[C@@H](CCCCN)C(=O)N[C@@H](CCCCN)C(=O)N[C@@H](Cc1ccccc1)C(=O)NCC(=O)N[C@@H](CCCCN)C(=O)N[C@@H](C)C(=O)N[C@@H](Cc1ccccc1)C(=O)N[C@H](C(=O)N[C@@H](CCCCN)C(=O)N[C@H](C(=O)N[C@@H](CC(C)C)C(=O)N[C@@H](CCCCN)C(=O)N[C@@H](CCCCN)C(N)=O)[C@@H](C)CC)C(C)C  MIC (Enterobacter sp.; broth dilution; KCTC 2625): < 3.1 µM
C[C@H]1CN(c2n[nH]c3nc(N[C@H]4CC[C@H](NS(=O)(=O)CCC(F)(F)F)CC4)ncc23)CCO1  IC50 (Methyl-CpG-binding domain protein 3 (MBD3, Homo sapiens, UniProt O95983); biochemical): ≥ 20 µM
CCN1CCN(C(=O)N[C@@H](C(=O)N[C@@H]2C(=O)N3[C@@H]2SC(C)(C)[C@@H]3C(=O)O)c2ccccc2)C(=O)C1=O  MIC (Escherichia coli; broth microdilution; Keio mutant JW2142-1): 3.12 µg/mL
CC(C)C[C@H](NC(=O)[C@H](CCCNC(=N)N)NC(=O)[C@H](Cc1c[nH]c2ccccc12)NC(=O)[C@H](CCCNC(=N)N)NC(=O)[C@H](Cc1c[nH]c2ccccc12)NC(=O)[C@H](Cc1c[nH]c2ccccc12)NC(=O)[C@H](Cc1c[nH]c2ccccc12)NC(=O)[C@H](CCCNC(=N)N)NC(=O)[C@H](Cc1c[nH]c2ccccc12)NC(=O)[C@@H](N)CCCNC(=N)N)C(N)=O  MIC (Candida albicans; broth microdilution; SP3931, RPMI 1640-MOPS; 48 h, 30 °C): 8 µM
CC[C@H](C)[C@H](N)C(=O)N[C@@H](CCCNC(=N)N)C(=O)N[C@H](C(=O)N[C@@H](Cc1c[nH]c2ccccc12)C(=O)N[C@@H](CCCCN)C(=O)N[C@@H](CCCCN)C(=O)N[C@@H](Cc1ccccc1)C(=O)N[C@H](C(=O)N[C@@H](CCCNC(=N)N)C(=O)N[C@@H](CCCCN)C(=O)N[C@@H](CCSC)C(=O)N[C@@H](CCCCN)C(=O)N[C@@H](C)C(=O)N[C@H](C(=O)N[C@@H](Cc1ccc(O)cc1)C(=O)N[C@@H](Cc1c[nH]cn1)C(N)=O)[C@@H](C)CC)C(C)C)C(C)C  MIC (Listeria monocytogenes; broth dilution; KCTC 13064): 100 µM
CN1CC(O)=C(C(=O)NC(C(=O)NC2C(=O)N3C2SC(C)(C)C3C(=O)O)c2ccccc2)C1=O (centres unmarked)  MIC (Escherichia coli; broth microdilution; isolate IU 356 A, KPC-3, VIM-1, TEM; no clavulanic acid): > 200 µg/mL
CC(C)[C@H](NC(=O)[C@H](CCCNC(=N)N)NC(=O)[C@H](Cc1c[nH]c2ccccc12)NC(=O)[C@H](CCCNC(=N)N)NC(=O)[C@H](Cc1c[nH]c2ccccc12)NC(=O)[C@H](Cc1c[nH]c2ccccc12)NC(=O)[C@H](Cc1c[nH]c2ccccc12)NC(=O)[C@H](CCCNC(=N)N)NC(=O)[C@H](Cc1c[nH]c2ccccc12)NC(=O)[C@@H](N)CCCNC(=N)N)C(N)=O  MIC (Candida albicans; broth microdilution; CGMCC 2.209, RPMI 1640-MOPS; 48 h, 30 °C, with: NH4Cl 6 µM): 32 µM
CC1(C)S[C@@H]2[C@H](NC(=O)[C@H](N)c3ccccc3)C(=O)N2[C@H]1C(=O)O  MIC (Escherichia coli; broth microdilution; Keio mutant JW0146-2; 18 h, ferric hydroxamate uptake gene): 6.25 µg/mL
C[C@H](NC(=O)[C@H](CCCNC(=N)N)NC(=O)[C@H](Cc1c[nH]c2ccccc12)NC(=O)[C@H](CCCNC(=N)N)NC(=O)[C@H](Cc1c[nH]c2ccccc12)NC(=O)[C@H](Cc1c[nH]c2ccccc12)NC(=O)[C@H](Cc1c[nH]c2ccccc12)NC(=O)[C@H](CCCNC(=N)N)NC(=O)[C@H](Cc1c[nH]c2ccccc12)NC(=O)[C@@H](N)CCCNC(=N)N)C(N)=O  MIC (Candida albicans; broth microdilution; SP3931, RPMI 1640-MOPS; 48 h, 30 °C): 4 µM
CC1(C)SC2C(NC(=O)C(NC(=O)C3=C(O)C4CCCN4C3=O)c3ccccc3)C(=O)N2C1C(=O)O (centres unmarked)  MIC (Escherichia coli; broth microdilution; isolate IU 356 A, KPC-3, VIM-1, TEM; with: clavulanic acid 6 µg/mL): > 200 µg/mL
CC(C)C[C@H](NC(=O)[C@H](CCCNC(=N)N)NC(=O)[C@H](Cc1c[nH]c2ccccc12)NC(=O)[C@H](CCCNC(=N)N)NC(=O)[C@H](Cc1c[nH]c2ccccc12)NC(=O)[C@H](Cc1c[nH]c2ccccc12)NC(=O)[C@H](Cc1c[nH]c2ccccc12)NC(=O)[C@H](CCCNC(=N)N)NC(=O)[C@H](Cc1c[nH]c2ccccc12)NC(=O)[C@H](CCCNC(=N)N)NC(=O)CN)C(N)=O  MIC (Candida albicans; broth microdilution; alveolar fluid isolate, RPMI 1640-MOPS; 48 h, 30 °C): 32 µM
